Measured values from different studies.
Each line is one published result; not all experiments were run side by side. ± marks the error that the study gave.
TDP1: Tyrosyl-DNA phosphodiesterase 1 (TDP1, Homo sapiens, UniProt Q9NUW8)
UniProt Q9NUW8, sequence (whole entry, looked up): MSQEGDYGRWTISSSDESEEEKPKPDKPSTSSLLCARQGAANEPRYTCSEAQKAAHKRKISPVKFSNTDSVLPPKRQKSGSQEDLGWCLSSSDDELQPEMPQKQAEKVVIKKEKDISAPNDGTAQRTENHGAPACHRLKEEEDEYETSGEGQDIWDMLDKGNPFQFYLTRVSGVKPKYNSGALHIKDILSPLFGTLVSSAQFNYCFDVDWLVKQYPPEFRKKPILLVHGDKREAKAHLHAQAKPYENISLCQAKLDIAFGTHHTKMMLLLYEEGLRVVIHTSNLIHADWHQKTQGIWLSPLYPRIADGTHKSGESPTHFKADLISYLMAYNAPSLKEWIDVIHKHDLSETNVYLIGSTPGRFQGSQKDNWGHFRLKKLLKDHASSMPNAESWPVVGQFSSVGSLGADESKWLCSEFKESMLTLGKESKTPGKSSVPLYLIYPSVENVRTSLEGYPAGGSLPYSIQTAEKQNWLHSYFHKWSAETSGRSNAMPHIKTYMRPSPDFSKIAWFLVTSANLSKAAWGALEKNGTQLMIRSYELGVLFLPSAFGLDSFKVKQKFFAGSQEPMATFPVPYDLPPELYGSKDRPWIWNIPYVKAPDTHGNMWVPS

Cc1nc(N)nc2c1C(=O)N[C@@H](c1ccc(F)cc1-c1cccc(OCCF)n1)C2  blocking (Hsp90; in vitro autoradiography; rat brain slice; 11 kBq/mL, room temperature, added: blocker 10 µM): 97 ± 2%
Cn1c(=O)[nH]c(=O)c2c1nc(CN1CCN(c3cccc(Cl)c3)CC1)n2Cc1cccc(Cl)c1  IP1 accumulation increase (PLC-gamma2 human; HEK293-A overexpressing PLC-gamma2; 50 µM, 2 h): 10%
C=CC(=O)N1[C@@H](c2ccc3c(c2)OCO3)c2[nH]c3ccccc3c2C[C@H]1C(=O)N1CCN(C)CC1  relative co-enrichment (human cyclin E1 N112C-3xFLAG:CDK2; co-IP with TMT proteomics, refers to: TUBA1A; concentration not given, Q71U36; baseline: wild type DMSO): 127%
CCC(=O)N(C)c1ccc(Cl)c(Cl)c1  inhibition (SKCa potassium channel; radioligand binding; 10 µM): < 10%
CC(CC=NOCc1ccc(-c2nc3cc(-c4ccccc4)ccn3c2Nc2ccc(C(=O)O)cc2)cc1)c1cn(C)c2ccccc12 (stereo not shown)  inhibition (TDP1; enzyme activity, inhibitor; 100 µM, unpurified compound): 71.7%
NCCCn1cc(COc2cc(C(=O)Nc3cc(OCCN)c4ccccc4n3)nc(C(=O)Nc3cc(OCCN)c4ccccc4n3)c2)nn1  ΔTm (c-kit2 G-quadruplex DNA; FRET melting; 1 µM, pH 7.4, added: 60 mM potassium): 7.2 ± 0.4 K
CNC(=O)C1CCN(c2cc(C)c(F)cc2NC(=O)c2ccc(-c3cc(O)ccc3C)c(C)c2)CC1  percent of control (FLT3 ITD F691L (human); binding, KINOMEscan; 1000 nM): 74%
O=C(O)c1ccc(Nc2c(-c3ccccc3)nc3ccc(CON=Cc4ccc(S(=O)(=O)c5ccc(Cl)cc5)o4)cn23)cc1 (mixture of isomers)  inhibition (TDP1; enzyme activity, inhibitor; 100 µM, unpurified compound): 32.3%
C=CC(=O)Nc1cccc(Cn2ncc3cnc(Nc4cnn(CCOC)c4)nc32)c1  percent of control (TIE1 human; binding, KINOMEscan; 100 nM; lower = stronger binding): 21%
COc1ccc(C(=O)Nc2c(-c3cccs3)nc3ccccn23)cc1  inhibition (sigma receptor 1; binding; 10 µM): < 50%
Cn1ccc2cc(-n3c(=O)[nH]c4sc5c(c4c3=O)CCCC5)ccc21  inhibition (rat sodium channel; radioligand binding; 10 µM, site 2): 21%
Cc1cn(CC(=O)N(CC(=O)N[C@H]2CCC[C@@H]2N(CC(=O)N[C@H]2COC[C@@H]2N(CC(=O)N[C@H]2COC[C@@H]2N(CC(=O)N[C@H]2COC[C@@H]2N(CC(=O)NCCOCCOCC(N)=O)C(=O)Cn2cnc3c(N)ncnc32)C(=O)Cn2cc(C)c(=O)[nH]c2=O)C(=O)Cn2cnc3c(N)ncnc32)C(=O)Cn2cnc3c(=O)[nH]c(N)nc32)[C@H]2CCC[C@@H]2NC(=O)CN(C(=O)Cn2cnc3c(=O)[nH]c(N)nc32)[C@H]2CCC[C@@H]2NC(=O)CN(C(=O)Cn2cc(C)c(=O)[nH]c2=O)[C@H]2COC[C@@H]2NC(=O)CN(C(=O)Cn2cnc3c(N)ncnc32)[C@H]2COC[C@@H]2NC(=O)CN(C(=O)Cn2cnc3c(=O)[nH]c(N)nc32)[C@H]2COC[C@@H]2N)c(=O)[nH]c1=O  ΔTm (mismatched RNA TC; duplex formation, UV melting; baseline: complementary RNA): -21.7 °C
NCCOc1cc(NC(=O)c2cc(OCc3cn(Cc4ccc(C(=O)O)cc4)nn3)cc(C(=O)Nc3cc(OCCN)c4ccccc4n3)n2)nc2ccccc12  ΔTm (c-kit2 G-quadruplex DNA; FRET melting; 1 µM, pH 7.4, added: 60 mM potassium): 9.2 ± 0.5 K
COc1ccc2cc3[n+](cc2c1OCCCOC(=O)c1cscn1)CCc1cc2c(cc1-3)OCO2  inhibition (PCSK9; concentration not given): 51.2%
c1ccc(-c2n[nH]cc2-c2ccnc3ccccc23)nc1  log2 fold change (NPR1 (Candida albicans); kinase binding, MIB/MS competition; Candida albicans lysate; 1 µM; baseline: DMSO): 0.08
Nc1ncc(-c2cc(-c3cnn(CC(F)(F)F)c3)ncc2F)nc1C(=O)NC1CNCC(F)C1 (stereo not shown)  remaining binding (TGFBR1; KINOMEscan; 1 µM; baseline: DMSO control): 83%

Excerpt of the above:
NCCCn1cc(COc2cc(C(=O)Nc3cc(OCCN)c4ccccc4n3)nc(C(=O)Nc3cc(OCCN)c4ccccc4n3)c2)nn1  ΔTm (c-kit2 G-quadruplex DNA; FRET melting; 1 µM, pH 7.4, added: 60 mM potassium): 7.2 ± 0.4 K
CNC(=O)C1CCN(c2cc(C)c(F)cc2NC(=O)c2ccc(-c3cc(O)ccc3C)c(C)c2)CC1  percent of control (FLT3 ITD F691L (human); binding, KINOMEscan; 1000 nM): 74%
